Assay results collected from several papers.
Each line is one published result; not all experiments were run side by side.
HLA class I histocompatibility antigen, B alpha chain allele B*27:05: HLA class I histocompatibility antigen, B alpha chain, allele B*27:05 (Homo sapiens, UniProt P01889)
HLA class I histocompatibility antigen, B alpha chain: HLA class I histocompatibility antigen, B alpha chain (Homo sapiens, UniProt P01889)
HLA class I histocompatibility antigen, B alpha chain allele B*40:01: HLA class I histocompatibility antigen, B alpha chain, allele B*40:01 (Homo sapiens, UniProt P01889)

The IC50 of `CC[C@H](C)[C@H](NC(=O)[C@H](CCCCN)NC(=O)[C@H](CC(C)C)NC(=O)[C@H](Cc1ccc(O)cc1)NC(=O)[C@H](CC(C)C)NC(=O)[C@H](CO)NC(=O)[C@H](CCC(N)=O)NC(=O)[C@H](CCCNC(=N)N)NC(=O)[C@@H](N)Cc1ccccc1)C(=O)O` is reported as 0.007 µM (HLA class I histocompatibility antigen, B alpha chain allele B*27:05; peptide binding, fluorescence anisotropy; 18 h, 4 °C).
The IC50 of `CC(C)C[C@H](NC(=O)[C@H](Cc1ccc(O)cc1)NC(=O)CNC(=O)[C@@H](N)C(C)C)C(=O)N[C@@H](CCC(N)=O)C(=O)N1CCC[C@H]1C(=O)N[C@@H](CCCNC(=N)N)C(=O)N[C@H](C(=O)N[C@@H](Cc1ccccc1)C(=O)O)[C@@H](C)O` is reported as > 70 µM (HLA class I histocompatibility antigen, B alpha chain; peptide-MHC binding, radioligand competition binding).
`CC(C)[C@H](NC(=O)[C@@H](N)CCCCN)C(=O)N[C@@H](CC(=O)O)C(=O)N1CCC[C@H]1C(=O)N[C@@H](CCCCN)C(=O)N[C@@H](Cc1ccccc1)C(=O)N[C@H](C(=O)N[C@@H](CO)C(=O)N[C@@H](Cc1ccccc1)C(=O)O)[C@@H](C)O` gave an IC50 of 52.4 µM (HLA class I histocompatibility antigen, B alpha chain allele B*40:01; binding).
With `CC[C@H](C)[C@H](NC(=O)CNC(=O)[C@@H](NC(=O)[C@H](CC(N)=O)NC(=O)[C@@H](NC(=O)[C@H](CCCNC(=N)N)NC(=O)[C@@H](N)CCCCN)[C@@H](C)O)C(C)C)C(=O)N[C@@H](CC(C)C)C(=O)N[C@@H](CCCCN)C(=O)O` the IC50 was 0.136 µM (HLA class I histocompatibility antigen, B alpha chain allele B*27:05; peptide binding, fluorescence anisotropy; 18 h, 4 °C).
With `CC[C@H](C)[C@H](NC(=O)[C@H](CCC(N)=O)NC(=O)[C@@H]1CCCN1C(=O)[C@H](Cc1ccc(O)cc1)NC(=O)[C@@H]1CCCN1C(=O)[C@@H](N)CC(C)C)C(=O)N[C@@H](CC(C)C)C(=O)N[C@@H](CC(C)C)C(=O)N[C@@H](CC(C)C)C(=O)O` the IC50 was 0.144 µM (HLA class I histocompatibility antigen, B alpha chain; binding, competitor).
The IC50 of `CC[C@H](C)[C@H](NC(=O)[C@@H](NC(=O)[C@@H](NC(=O)[C@H](CC(=O)O)NC(=O)[C@H](CC(=O)O)NC(=O)CNC(=O)[C@@H](N)Cc1ccccc1)[C@@H](C)O)C(C)C)C(=O)N[C@@H](CCC(=O)O)C(=O)N[C@H](C(=O)O)C(C)C` is reported as > 70 µM (HLA class I histocompatibility antigen, B alpha chain, allele B*18:01 (Homo sapiens, UniProt P01889); peptide-MHC binding, radioligand competition binding).
The IC50 of `CC[C@H](C)[C@H](NC(=O)[C@H](CCCNC(=N)N)NC(=O)CNC(=O)[C@@H](NC(=O)[C@@H]1CCCN1C(=O)[C@@H](N)CCSC)[C@@H](C)CC)C(=O)N[C@@H](C)C(=O)N[C@@H](CCC(=O)O)C(=O)N[C@@H](CS)C(=O)N[C@H](C(=O)N[C@@H](CC(C)C)C(=O)O)[C@@H](C)CC` is reported as 5.43 µM (HLA class I histocompatibility antigen, B alpha chain; binding, competitor, radioligand competition; two days, room temperature, HLA-B*07:02).
`N=C(N)NCCC[C@H](NC(=O)[C@H](CC(N)=O)NC(=O)[C@H](Cc1ccc(O)cc1)NC(=O)[C@H](CO)NC(=O)[C@H](CCCNC(=N)N)NC(=O)[C@H](CS)NC(=O)[C@H](Cc1c[nH]cn1)NC(=O)[C@H](CCCNC(=N)N)NC(=O)[C@@H](N)CCCNC(=N)N)C(=O)O` has an IC50 of 0.055 µM (HLA class I histocompatibility antigen, B alpha chain allele B*27:05; peptide binding, fluorescence anisotropy; 18 h, 4 °C).
With `CC(C)C[C@H](NC(=O)[C@@H](N)CCC(=O)O)C(=O)N1CCC[C@H]1C(=O)N[C@@H](CC(=O)O)C(=O)N[C@@H](CCC(=O)O)C(=O)N[C@@H](Cc1ccccc1)C(=O)N[C@H](C(=O)N[C@H](C(=O)N[C@H](C(=O)O)C(C)C)C(C)C)C(C)C` the IC50 was > 70 µM (HLA class I histocompatibility antigen, B alpha chain; peptide-MHC binding, radioligand competition binding).
The IC50 of `CC(C)C[C@H](NC(=O)[C@H](CCCNC(=N)N)NC(=O)[C@H](CC(C)C)NC(=O)[C@H](CC(N)=O)NC(=O)[C@@H](NC(=O)[C@H](C)NC(=O)[C@H](Cc1ccccc1)NC(=O)[C@H](CCCNC(=N)N)NC(=O)[C@H](C)N)C(C)C)C(=O)O` is reported as 0.008 µM (HLA class I histocompatibility antigen, B alpha chain allele B*27:05; peptide binding, fluorescence anisotropy; 18 h, 4 °C).
With `CC[C@H](C)[C@H](NC(=O)[C@H](CC(=O)O)NC(=O)[C@H](Cc1ccc(O)cc1)NC(=O)[C@H](CCC(N)=O)NC(=O)[C@@H](N)Cc1ccccc1)C(=O)N1CCC[C@H]1C(=O)N[C@@H](Cc1c[nH]cn1)C(=O)N[C@@H](CCC(=O)O)C(=O)N[C@@H](CCSC)C(=O)O` the IC50 was 11.1 µM (HLA class I histocompatibility antigen, B alpha chain allele B*40:01; binding).
`CC(C)C[C@H](NC(=O)[C@H](C)NC(=O)[C@H](Cc1c[nH]c2ccccc12)NC(=O)[C@H](CCCNC(=N)N)NC(=O)CN)C(=O)N[C@@H](Cc1c[nH]cn1)C(=O)N[C@@H](CO)C(=O)N[C@@H](C)C(=O)N[C@@H](Cc1ccccc1)C(=O)O` has an IC50 of 0.068 µM (HLA class I histocompatibility antigen, B alpha chain allele B*27:05; peptide binding, fluorescence anisotropy; 18 h, 4 °C).
The IC50 of `CC[C@H](C)[C@H](NC(=O)[C@@H](NC(=O)[C@@H](NC(=O)[C@H](CC(N)=O)NC(=O)[C@@H](NC(=O)[C@H](C)NC(=O)[C@@H](N)CC(N)=O)[C@@H](C)O)C(C)C)C(C)C)C(=O)N[C@@H](CCCCN)C(=O)N[C@H](C(=O)O)C(C)C` is reported as > 70 µM (HLA class I histocompatibility antigen, B alpha chain; peptide-MHC binding, radioligand competition binding).
`CC(C)C[C@H](NC(=O)[C@@H]1CCCN1C(=O)[C@@H](NC(=O)[C@@H]1CCCN1C(=O)[C@@H](NC(=O)[C@H](CCC(=O)O)NC(=O)[C@H](Cc1c[nH]cn1)NC(=O)[C@H](CCCNC(=N)N)NC(=O)[C@@H](N)CCCCN)C(C)C)C(C)C)C(=O)O` has an IC50 of 0.907 µM (HLA class I histocompatibility antigen, B alpha chain allele B*27:05; peptide binding, fluorescence anisotropy; 18 h, 4 °C).
With `CC[C@H](C)[C@H](NC(=O)[C@@H](N)CCC(=O)O)C(=O)N[C@@H](CCCCN)C(=O)N[C@@H](CCC(=O)O)C(=O)N[C@@H](CO)C(=O)N[C@H](C(=O)N[C@@H](CCC(N)=O)C(=O)N[C@H](C(=O)N[C@@H](Cc1ccccc1)C(=O)O)[C@@H](C)O)C(C)C` the IC50 was > 70 µM (HLA class I histocompatibility antigen, B alpha chain; peptide-MHC binding, radioligand competition binding).
With `CC[C@H](C)[C@H](NC(=O)[C@@H]1CCCN1C(=O)[C@H](CCCCN)NC(=O)[C@@H]1CCCN1C(=O)[C@H](CCSC)NC(=O)[C@H](CCC(N)=O)NC(=O)[C@@H](N)Cc1ccc(O)cc1)C(=O)N[C@H](C(=O)N[C@@H](Cc1ccccc1)C(=O)O)[C@@H](C)O` the IC50 was 23.1 µM (HLA class I histocompatibility antigen, B alpha chain allele B*40:01; binding).
`CC(C)C[C@H](NC(=O)[C@H](CCC(N)=O)NC(=O)[C@H](CC(=O)O)NC(=O)[C@H](C)NC(=O)[C@@H](N)Cc1c[nH]cn1)C(=O)N[C@H](C(=O)N1CCC[C@H]1C(=O)N[C@H](C(=O)N[C@@H](Cc1c[nH]c2ccccc12)C(=O)O)[C@@H](C)O)[C@@H](C)O` has an IC50 of > 70 µM (HLA class I histocompatibility antigen, B alpha chain; peptide-MHC binding, radioligand competition binding).
With `CSCC[C@H](NC(=O)[C@H](CCC(=O)O)NC(=O)[C@H](CCC(=O)O)NC(=O)[C@@H](N)CCCNC(=N)N)C(=O)N[C@@H](CCC(=O)O)C(=O)N[C@H](C(=O)N[C@@H](Cc1c[nH]cn1)C(=O)N[C@@H](CCC(=O)O)C(=O)N[C@@H](CC(C)C)C(=O)O)C(C)C` the IC50 was > 40 µM (HLA class I histocompatibility antigen, B alpha chain; binding, competitor, radioligand competition; two days, room temperature, HLA-B*07:02).

Excerpt of the above:
With `CC[C@H](C)[C@H](NC(=O)[C@H](CC(=O)O)NC(=O)[C@H](Cc1ccc(O)cc1)NC(=O)[C@H](CCC(N)=O)NC(=O)[C@@H](N)Cc1ccccc1)C(=O)N1CCC[C@H]1C(=O)N[C@@H](Cc1c[nH]cn1)C(=O)N[C@@H](CCC(=O)O)C(=O)N[C@@H](CCSC)C(=O)O` the IC50 was 11.1 µM (HLA class I histocompatibility antigen, B alpha chain allele B*40:01; binding).
`CC(C)C[C@H](NC(=O)[C@H](C)NC(=O)[C@H](Cc1c[nH]c2ccccc12)NC(=O)[C@H](CCCNC(=N)N)NC(=O)CN)C(=O)N[C@@H](Cc1c[nH]cn1)C(=O)N[C@@H](CO)C(=O)N[C@@H](C)C(=O)N[C@@H](Cc1ccccc1)C(=O)O` has an IC50 of 0.068 µM (HLA class I histocompatibility antigen, B alpha chain allele B*27:05; peptide binding, fluorescence anisotropy; 18 h, 4 °C).
